# Assay results of several laboratories.
# Numbered parts are unrelated; each lists some results of a single study.
# Chain of UniProt Q13043 (whole entry, looked up): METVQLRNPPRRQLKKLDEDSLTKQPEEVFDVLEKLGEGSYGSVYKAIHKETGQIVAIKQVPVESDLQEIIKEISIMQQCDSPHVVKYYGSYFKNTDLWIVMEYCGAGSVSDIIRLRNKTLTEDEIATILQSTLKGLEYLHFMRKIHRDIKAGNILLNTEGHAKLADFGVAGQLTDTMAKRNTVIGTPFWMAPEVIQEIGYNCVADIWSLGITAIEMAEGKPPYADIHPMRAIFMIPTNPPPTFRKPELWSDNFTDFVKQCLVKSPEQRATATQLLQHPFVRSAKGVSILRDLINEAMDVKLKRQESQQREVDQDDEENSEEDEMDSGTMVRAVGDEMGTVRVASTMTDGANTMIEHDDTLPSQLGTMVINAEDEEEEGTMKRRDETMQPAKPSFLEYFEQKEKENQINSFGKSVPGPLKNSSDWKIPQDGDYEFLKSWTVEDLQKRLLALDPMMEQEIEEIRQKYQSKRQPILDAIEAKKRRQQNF
# Chain of UniProt Q9Y2I7 (whole entry, looked up): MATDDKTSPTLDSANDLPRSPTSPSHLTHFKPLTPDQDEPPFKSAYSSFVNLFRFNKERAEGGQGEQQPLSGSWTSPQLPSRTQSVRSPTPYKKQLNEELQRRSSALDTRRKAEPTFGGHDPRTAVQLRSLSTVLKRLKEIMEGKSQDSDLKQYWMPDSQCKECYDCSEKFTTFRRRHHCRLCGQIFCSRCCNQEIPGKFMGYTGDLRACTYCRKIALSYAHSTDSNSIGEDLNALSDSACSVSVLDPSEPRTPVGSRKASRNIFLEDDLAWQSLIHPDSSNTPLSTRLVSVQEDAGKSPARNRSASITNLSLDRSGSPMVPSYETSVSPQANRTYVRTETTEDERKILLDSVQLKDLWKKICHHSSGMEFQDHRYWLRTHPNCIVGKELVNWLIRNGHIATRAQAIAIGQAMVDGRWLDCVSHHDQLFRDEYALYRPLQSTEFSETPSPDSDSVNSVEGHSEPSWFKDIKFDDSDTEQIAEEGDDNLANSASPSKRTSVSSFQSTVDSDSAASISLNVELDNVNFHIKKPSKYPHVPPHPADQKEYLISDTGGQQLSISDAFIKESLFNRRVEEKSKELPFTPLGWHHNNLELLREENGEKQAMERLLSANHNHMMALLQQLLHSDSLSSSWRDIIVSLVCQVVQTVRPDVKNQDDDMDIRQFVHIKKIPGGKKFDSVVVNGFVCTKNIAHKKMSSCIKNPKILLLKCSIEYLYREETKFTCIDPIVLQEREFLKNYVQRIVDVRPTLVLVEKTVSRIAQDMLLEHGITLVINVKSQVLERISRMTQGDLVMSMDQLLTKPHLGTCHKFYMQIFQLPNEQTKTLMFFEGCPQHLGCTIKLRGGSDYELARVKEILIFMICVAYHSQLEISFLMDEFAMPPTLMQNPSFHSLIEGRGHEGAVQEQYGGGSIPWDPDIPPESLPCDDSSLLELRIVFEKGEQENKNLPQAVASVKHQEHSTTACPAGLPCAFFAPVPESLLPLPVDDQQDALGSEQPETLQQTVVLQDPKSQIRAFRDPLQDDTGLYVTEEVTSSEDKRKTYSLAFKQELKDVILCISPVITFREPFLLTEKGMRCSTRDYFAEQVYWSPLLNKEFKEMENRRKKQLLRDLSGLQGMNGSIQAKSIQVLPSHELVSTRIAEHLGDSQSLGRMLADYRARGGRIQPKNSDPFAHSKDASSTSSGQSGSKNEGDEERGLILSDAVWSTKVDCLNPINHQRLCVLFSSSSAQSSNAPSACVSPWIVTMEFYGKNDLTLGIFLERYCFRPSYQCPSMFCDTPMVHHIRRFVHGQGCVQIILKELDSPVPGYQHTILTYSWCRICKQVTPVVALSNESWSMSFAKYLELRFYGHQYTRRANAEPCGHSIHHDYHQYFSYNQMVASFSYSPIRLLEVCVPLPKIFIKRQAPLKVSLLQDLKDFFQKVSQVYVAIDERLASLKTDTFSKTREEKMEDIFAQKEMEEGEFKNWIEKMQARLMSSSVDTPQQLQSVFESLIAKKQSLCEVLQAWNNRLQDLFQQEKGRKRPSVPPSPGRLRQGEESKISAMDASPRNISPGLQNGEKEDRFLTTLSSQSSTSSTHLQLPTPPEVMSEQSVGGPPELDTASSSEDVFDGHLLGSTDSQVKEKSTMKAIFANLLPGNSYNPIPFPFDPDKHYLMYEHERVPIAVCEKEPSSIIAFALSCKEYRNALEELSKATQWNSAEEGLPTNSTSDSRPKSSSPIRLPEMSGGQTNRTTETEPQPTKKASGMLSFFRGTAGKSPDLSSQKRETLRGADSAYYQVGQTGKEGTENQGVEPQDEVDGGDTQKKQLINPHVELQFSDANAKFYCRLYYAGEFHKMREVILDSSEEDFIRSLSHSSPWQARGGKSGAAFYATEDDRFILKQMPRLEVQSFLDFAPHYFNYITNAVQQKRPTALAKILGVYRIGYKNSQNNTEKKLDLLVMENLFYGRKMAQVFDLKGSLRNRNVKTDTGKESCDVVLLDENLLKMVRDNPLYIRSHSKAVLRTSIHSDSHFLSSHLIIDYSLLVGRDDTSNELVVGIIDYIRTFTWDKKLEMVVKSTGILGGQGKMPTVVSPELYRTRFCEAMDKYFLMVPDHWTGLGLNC
# Chain of UniProt O14733 (whole entry, looked up): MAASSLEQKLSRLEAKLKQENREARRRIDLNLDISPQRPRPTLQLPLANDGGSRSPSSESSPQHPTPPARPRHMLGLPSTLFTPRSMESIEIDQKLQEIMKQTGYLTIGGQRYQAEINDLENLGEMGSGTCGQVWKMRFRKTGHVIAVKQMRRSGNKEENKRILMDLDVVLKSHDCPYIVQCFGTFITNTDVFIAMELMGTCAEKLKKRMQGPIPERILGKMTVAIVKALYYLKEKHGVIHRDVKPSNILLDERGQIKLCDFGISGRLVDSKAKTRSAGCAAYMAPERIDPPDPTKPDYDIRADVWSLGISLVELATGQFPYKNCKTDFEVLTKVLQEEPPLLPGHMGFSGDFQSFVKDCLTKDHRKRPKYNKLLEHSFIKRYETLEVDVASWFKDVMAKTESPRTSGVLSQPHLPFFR
# Chain of UniProt Q05655 (whole entry, looked up): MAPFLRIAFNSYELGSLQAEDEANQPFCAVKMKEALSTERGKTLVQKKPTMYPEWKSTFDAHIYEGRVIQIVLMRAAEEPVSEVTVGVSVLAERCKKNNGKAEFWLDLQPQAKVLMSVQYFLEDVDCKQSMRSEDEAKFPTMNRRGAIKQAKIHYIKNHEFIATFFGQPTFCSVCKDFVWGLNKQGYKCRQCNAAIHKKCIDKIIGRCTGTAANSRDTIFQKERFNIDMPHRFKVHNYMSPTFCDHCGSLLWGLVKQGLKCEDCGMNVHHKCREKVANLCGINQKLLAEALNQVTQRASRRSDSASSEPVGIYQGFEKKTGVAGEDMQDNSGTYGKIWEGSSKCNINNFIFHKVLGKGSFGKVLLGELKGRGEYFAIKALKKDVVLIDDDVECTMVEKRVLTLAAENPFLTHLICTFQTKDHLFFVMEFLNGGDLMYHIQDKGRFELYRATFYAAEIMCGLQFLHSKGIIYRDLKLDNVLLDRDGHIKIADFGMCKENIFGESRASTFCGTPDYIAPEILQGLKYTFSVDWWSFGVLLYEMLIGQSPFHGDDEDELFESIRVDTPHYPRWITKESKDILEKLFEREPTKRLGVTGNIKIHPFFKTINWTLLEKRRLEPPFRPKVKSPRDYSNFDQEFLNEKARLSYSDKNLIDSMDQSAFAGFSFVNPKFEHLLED
# Chain of UniProt Q9UQM7 (whole entry, looked up): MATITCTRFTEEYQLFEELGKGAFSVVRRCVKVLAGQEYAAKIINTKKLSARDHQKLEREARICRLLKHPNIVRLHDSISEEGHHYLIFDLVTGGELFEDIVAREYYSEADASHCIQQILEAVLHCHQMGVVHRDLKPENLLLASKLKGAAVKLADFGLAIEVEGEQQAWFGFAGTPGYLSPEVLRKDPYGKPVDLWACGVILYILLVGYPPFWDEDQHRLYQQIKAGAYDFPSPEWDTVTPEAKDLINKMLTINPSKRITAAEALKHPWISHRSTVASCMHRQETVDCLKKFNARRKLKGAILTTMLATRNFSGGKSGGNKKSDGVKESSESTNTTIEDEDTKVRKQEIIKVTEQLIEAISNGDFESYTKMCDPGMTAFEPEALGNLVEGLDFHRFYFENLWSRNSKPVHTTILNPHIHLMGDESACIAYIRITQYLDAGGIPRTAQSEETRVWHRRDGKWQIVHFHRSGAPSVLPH
# Chain of UniProt P0C264 (whole entry, looked up): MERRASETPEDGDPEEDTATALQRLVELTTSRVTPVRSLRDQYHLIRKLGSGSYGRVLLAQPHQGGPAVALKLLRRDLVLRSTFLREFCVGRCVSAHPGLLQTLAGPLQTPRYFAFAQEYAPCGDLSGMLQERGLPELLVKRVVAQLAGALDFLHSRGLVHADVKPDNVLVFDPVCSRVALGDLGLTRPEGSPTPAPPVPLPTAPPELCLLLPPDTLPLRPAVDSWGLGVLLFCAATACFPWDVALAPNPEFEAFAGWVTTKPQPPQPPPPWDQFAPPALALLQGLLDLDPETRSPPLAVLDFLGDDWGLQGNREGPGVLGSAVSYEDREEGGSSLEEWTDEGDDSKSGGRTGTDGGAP

# Sample 1 — technique: competition protein-binding microarray; form: double-stranded DNA, one strand shown; medium: in vitro; tested at: 2 µM; together with: Pho4 competitor, 0.05 µM; direction: higher = stronger binding; shared flanks, not repeated: … GTCTTGATTCGCTTGACGCTGCTG
# Target: Centromere-binding protein 1, full length, His-tagged (CBF1, Saccharomyces cerevisiae, UniProt P17106, residues 1-351)
# Chain of UniProt P17106 (whole entry, looked up): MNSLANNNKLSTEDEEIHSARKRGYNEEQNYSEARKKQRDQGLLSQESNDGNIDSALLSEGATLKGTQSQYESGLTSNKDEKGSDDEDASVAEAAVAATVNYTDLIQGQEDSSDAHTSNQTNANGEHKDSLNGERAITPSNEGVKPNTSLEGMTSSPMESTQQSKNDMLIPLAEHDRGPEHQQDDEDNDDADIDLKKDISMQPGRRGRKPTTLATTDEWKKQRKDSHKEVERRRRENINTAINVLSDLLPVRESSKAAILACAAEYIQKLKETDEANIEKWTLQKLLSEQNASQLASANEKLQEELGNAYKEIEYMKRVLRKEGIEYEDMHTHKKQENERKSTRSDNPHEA
# Notes: whole 60-bp probe, lowest competitor level
Strand,fluorescence intensity [a.u.]
AAATTACTAAGTTCTCACGTGTTTTACCCCGTATGA,1670
CATACCCAACCTTGTCACTGGACTTAAGATATTTGT,108
TGTAAATGATGATAACGTAAAAGCACTGTTGATAAT,87.4
GTCTTGTCTCATTGGTTTGTGGGTGTCCCCACTTCA,76.6
CCGATGACGAGTTGGTCCGTGATGGCGGAACTAACT,68
CATACCCAACCTTGACCTGTGGGTGAAGATATTTGT,66.6
ATGGGGGCATAATCGCACGATGTGCAAGCTGAGTGT,94.3
AAATTACTAAGTTGCGGTGTGGGTGACGCCGTATGA,74.7

# Sample 2 — effect on: enzyme activity; action: inhibitor; tested at: 0.5 µM; relative to: control
# Target: Testis-specific serine/threonine-protein kinase 1 (TSSK1B, Homo sapiens, UniProt Q9BXA7)
# Residues (Q9BXA7 1-367): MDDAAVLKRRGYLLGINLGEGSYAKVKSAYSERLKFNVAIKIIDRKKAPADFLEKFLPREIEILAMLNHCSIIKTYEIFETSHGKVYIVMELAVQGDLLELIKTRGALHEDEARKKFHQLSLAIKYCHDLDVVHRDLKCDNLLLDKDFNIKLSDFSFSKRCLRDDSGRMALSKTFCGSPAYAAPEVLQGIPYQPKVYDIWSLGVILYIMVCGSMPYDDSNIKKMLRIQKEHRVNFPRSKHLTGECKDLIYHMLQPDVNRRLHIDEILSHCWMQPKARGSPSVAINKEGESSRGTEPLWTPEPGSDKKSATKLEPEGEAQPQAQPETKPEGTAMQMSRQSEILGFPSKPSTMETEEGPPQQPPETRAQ
SMILES,remaining activity
Nc1nc(Nc2ccc(S(N)(=O)=O)cc2)nn1C(=O)c1c(F)cccc1F,85.5%
O=C1Cc2c([nH]c3ccc([N+](=O)[O-])cc23)-c2ccccc2N1,74.7%
Cc1cc(Nc2nc(-c3ccccc3)nc3ccccc23)n[nH]1,76.7%
CSc1nc(-c2ccnc(N[C@@H](C)c3ccccc3)c2)c(-c2ccc(F)cc2)[nH]1 (racemic),73.5%
O=S(=O)(NCCNC/C=C/c1ccc(Br)cc1)c1cccc2cnccc12,93.5%

# Sample 3 — technique: protein-binding microarray; form: double-stranded DNA, one strand shown; medium: in vitro; tested at: not given; direction: higher = stronger binding
# Target: Hepatocyte nuclear factor 3-beta, forkhead domain (FOXA2, Homo sapiens, UniProt Q9Y261, residues 142-269)
# Notes: k-mer, scored over probes, only values ≥0.25
# Target sequence (chain): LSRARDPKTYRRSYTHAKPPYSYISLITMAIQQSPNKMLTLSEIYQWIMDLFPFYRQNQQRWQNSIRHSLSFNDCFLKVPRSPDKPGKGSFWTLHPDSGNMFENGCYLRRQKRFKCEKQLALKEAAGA
Strand,E-score
ATGACAAA,0.265
ATACGATA,0.325
AACACGTA,0.271
ATAATTAC,0.356
AACAATGC,0.266
ACATCTAC,0.312
TAACCATA,0.259
ACATACAT,0.412

# Sample 4 — effect on: cell-free assay; technique: competition with immobilised ligand; tested at: 1 µM
# Structure (SMILES): CNC(=O)Nc1ccc2c(c1)[C@@]1(CC2)OC(=O)N(CC(=O)N(Cc2ccc(F)cc2)[C@@H](C)C(F)(F)F)C1=O
target,remaining binding [%]
"Tyrosine-protein kinase ABL1, phosphorylated (ABL1, Homo sapiens, UniProt P00519, Q252H)",97
"Serine/threonine-protein kinase 4 (STK4, Homo sapiens, UniProt Q13043)",100
"1-phosphatidylinositol 3-phosphate 5-kinase (PIKFYVE, Homo sapiens, UniProt Q9Y2I7)",72
"Dual specificity mitogen-activated protein kinase kinase 7 (MAP2K7, Homo sapiens, UniProt O14733)",85
"Receptor-interacting serine/threonine-protein kinase 1 (RIPK1, Homo sapiens, UniProt Q13546)",93
"Homeodomain-interacting protein kinase 1 (HIPK1, Homo sapiens, UniProt Q86Z02)",78
"Calcium/calmodulin-dependent protein kinase type II subunit alpha (CAMK2A, Homo sapiens, UniProt Q9UQM7)",100
"Dual specificity protein kinase CLK1 (CLK1, Homo sapiens, UniProt P49759)",82
"Cytoplasmic tyrosine-protein kinase BMX (BMX, Homo sapiens, UniProt P51813)",99
"Uncharacterized serine/threonine-protein kinase SBK3 (SBK3, Homo sapiens, UniProt P0C264)",100
"Epidermal growth factor receptor (EGFR, Homo sapiens, UniProt P00533, del752-759)",100
"Protein kinase C delta type (PRKCD, Homo sapiens, UniProt Q05655)",75

# Repeated from above (sample 2):
SMILES,remaining activity
CSc1nc(-c2ccnc(N[C@@H](C)c3ccccc3)c2)c(-c2ccc(F)cc2)[nH]1 (racemic),73.5%
Cc1cc(Nc2nc(-c3ccccc3)nc3ccccc23)n[nH]1,76.7%
O=S(=O)(NCCNC/C=C/c1ccc(Br)cc1)c1cccc2cnccc12,93.5%
Nc1nc(Nc2ccc(S(N)(=O)=O)cc2)nn1C(=O)c1c(F)cccc1F,85.5%
